Measurements of several laboratories.
Compare with care: the assays were run in different laboratories.
Cell line: RAW264.7

For N#Cc1cccc(/C=C/C(=O)c2nc3cc(Cl)ccc3[nH]2)c1, the inhibition was 42.2% (osteoclast formation, item: TRAP-positive cells; 20 µg/mL, 72 h, added: RANKL).
With C/C=C(/NC(=O)CCCCCCC)C(=O)N/C(=C/C)C(=O)N[C@H](CC(C)C)C(=O)N[C@@H](CC(C)C)C(=O)Nc1ccc(C(=O)N[C@H](C(=O)O)[C@@H](C)O)cc1 the inhibition was 28.3% (NO release, inhibitor, Griess; 5 µM, 24 h, LPS-stimulated).
For Fc1ccc(NCc2cn(-c3ccccc3)nc2-c2ccc(OCc3ccccc3)cc2)cc1Cl, the inhibition was 75.5% (ELISA, item: TNF-alpha; 20 µM, added: LPS).
The inhibition of CC(=O)O[C@@H]1CC[C@@]2(C)C(CC[C@]3(C)C2C(=O)C=C2C4[C@@H](C)[C@H](C)CC[C@]4(C)CC[C@]23C)[C@@]1(C)c1nnc(SCC(=O)Oc2cc(C)ccc2C(C)C)o1 (some centres unmarked) is reported as 85.2% (NO release, inhibitor, Griess; 10 µM, 24 h, LPS-stimulated).
Under inhibition, C/C=C(/NC(=O)CCCCCCC)C(=O)N/C(=C/C)C(=O)N[C@H](CC(C)C)C(=O)N[C@H](C(=O)Nc1ccc(C(=O)N[C@H](C(=O)O)[C@@H](C)O)cc1)[C@@H](C)CC is recorded as “inhibited” (NO production, Griess; concentration not given, added: LPS).
CCN(CC)c1ccc(/C=C/C(=O)C(c2ccccc2)c2ccccc2)cc1 gave an inhibition of 89% (IL-6 release, inhibitor, ELISA; 10 µM, LPS-stimulated).
With NS(=O)(=O)c1ccc(-n2cc(CNc3ccc(Cl)cc3)c(-c3ccc(OCc4ccccc4)cc3)n2)cc1 the inhibition was 69.9% (ELISA, item: TNF-alpha; 20 µM, added: LPS).
COc1cc(/C=N\NC(=O)[C@]2(C)C3CC[C@]4(C)C(C(=O)C=C5C6[C@@H](C)[C@H](C)CC[C@]6(C)CC[C@]54C)[C@@]3(C)CC[C@H]2OC(C)=O)cc(OC)c1OC (some centres unmarked) gave an inhibition of 96.4% (NO release, inhibitor, Griess; 10 µM, 24 h, LPS-stimulated).
For CN(CCO)c1ccc(/C=C/C(=O)c2ccco2)cc1, the inhibition was 73 to 89% (IL-6 release, inhibitor, ELISA; 10 µM, LPS-stimulated).
CC(=O)O[C@@H]1CC[C@@]2(C)C(CC[C@]3(C)C2C(=O)C=C2C4[C@@H](C)[C@H](C)CC[C@]4(C)CC[C@]23C)[C@@]1(C)C(=O)OCC(=O)O[C@@H]1C[C@H](C)CC[C@H]1C(C)C (some centres unmarked) has an inhibition of 75.3% (NO release, inhibitor, Griess; 10 µM, 24 h, LPS-stimulated).
COc1cccc(/C=C/C(=O)c2cccc3ccccc23)c1OC has an inhibition of 89% (IL-6 release, inhibitor, ELISA; 10 µM, LPS-stimulated).

Repeated from above:
For N#Cc1cccc(/C=C/C(=O)c2nc3cc(Cl)ccc3[nH]2)c1, the inhibition was 42.2% (osteoclast formation, item: TRAP-positive cells; 20 µg/mL, 72 h, added: RANKL).
